Measured values of several laboratories.
Numbered parts are unrelated; each lists some results of a single study.

Series 1
Target: Ras GTPase-activating protein-binding protein 1, RRM domain (G3BP1, Homo sapiens, UniProt Q13283)
Chain of UniProt Q13283 (whole entry, looked up): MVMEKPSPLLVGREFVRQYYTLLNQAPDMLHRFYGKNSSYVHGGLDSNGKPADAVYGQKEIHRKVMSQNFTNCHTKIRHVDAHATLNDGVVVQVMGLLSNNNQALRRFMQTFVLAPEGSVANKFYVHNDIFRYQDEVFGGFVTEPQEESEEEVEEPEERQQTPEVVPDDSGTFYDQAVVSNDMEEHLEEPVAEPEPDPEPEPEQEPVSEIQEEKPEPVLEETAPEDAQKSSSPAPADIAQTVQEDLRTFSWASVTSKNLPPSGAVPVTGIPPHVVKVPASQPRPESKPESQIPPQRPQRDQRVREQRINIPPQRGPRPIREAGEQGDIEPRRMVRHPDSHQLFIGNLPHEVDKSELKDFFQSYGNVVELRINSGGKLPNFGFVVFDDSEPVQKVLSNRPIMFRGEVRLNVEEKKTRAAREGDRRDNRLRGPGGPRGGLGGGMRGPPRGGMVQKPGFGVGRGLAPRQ
Technique: RNA Bind-n-Seq
Form: RNA
Sample: in vitro
Concentration: 1 µM
Notes: whole 134-nt RNA, ends assumed
Added: 150 mM KCl
Reference: input library
Direction: higher = stronger binding
Quantity: log2 enrichment
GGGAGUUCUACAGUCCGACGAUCAGUCCUGUGCUACACAUCGUAUGUACCGAAUCGGUUUUUGGUUUUUGGGUUUUUGGGGAAAGUAUUAUGUUACGCCGUUCGGAUCUGCACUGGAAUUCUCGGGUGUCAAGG: -0.176
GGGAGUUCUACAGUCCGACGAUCUGGCCCUGGUGGCAUGCGGGGAGGAAGAGGUGGCCUCAUGGAUCGUGGUGGUCCCGGUGGAAUGUUCAGAGGUGGCCGAGGUGGAGACAGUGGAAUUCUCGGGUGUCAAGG: 1.3
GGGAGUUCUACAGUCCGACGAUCCCUGUGCUACACAUCGUAUGUACCGAAUCGGGGCCCCCCCGGCCCCCCCGGCCCCCCCGGAAAGUAUUAUGUUACGCCGUUCGGAUCUGCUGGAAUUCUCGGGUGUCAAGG: -0.695
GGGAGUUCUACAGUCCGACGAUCUAACUUUAGAGGAGGAUCUGAUGGAUAUGGCAGUGGACGUGGAUUUGGGGAUGGCUAUAAUGAGUAUGGAGGAGGACCUGGAGGUGGCAAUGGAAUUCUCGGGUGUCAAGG: -0.416
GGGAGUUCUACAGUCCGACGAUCUUGUGGCUGAGAGACAGUUUGCAAAGGAACAACAUACAGAUGGGACACUAAAGGAAGUUGGAGAAGAUUAUCAAAUCGCAAUCCCAGAUUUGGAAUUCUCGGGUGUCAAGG: 0.0487
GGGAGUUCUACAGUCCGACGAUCCCUCAAGUCCUGUGCUACACAUCGUAUGUACCGAAUCGGGGAGGGAGGAGGGGAAAGUAUUAUGUUACGCCGUUCGGAUCUGCACUUCCAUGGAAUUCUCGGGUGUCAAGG: 0.177
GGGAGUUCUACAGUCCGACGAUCUCCUGUGCUACACAUCGUAUGUACCGAAUCGGGCCCCCGGGCCCCCGGGGCCCCCGGGGAAAGUAUUAUGUUACGCCGUUCGGAUCUGCAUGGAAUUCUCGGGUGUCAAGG: -0.555
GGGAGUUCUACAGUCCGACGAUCAACAUGCAGGUGGGCAUCUUUGGGAAGUGGGGCAAGGGGGGGAUAGGGAGGGGGGUAACACUUUGGGAACAGGUGGUCCCAGGUCGUUUCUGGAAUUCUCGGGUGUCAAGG: -0.609
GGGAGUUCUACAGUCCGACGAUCCAGCAGUGAGUCUCUUCAGAAAACCCUUUUCUACAGUUAGGGUUGAGUUACUUCCUAUCAAGCCAGUACGUGCUAACAGGCUCAAUAUUCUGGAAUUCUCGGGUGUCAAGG: -0.209
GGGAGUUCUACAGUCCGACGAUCCAAGUCCUGUGCUACACAUCGUAUGUACCGAAUCGGGGCCCGGGCCCGGGCCCGGAAAGUAUUAUGUUACGCCGUUCGGAUCUGCACUUCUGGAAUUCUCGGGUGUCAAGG: -2.4

Series 2
Target: RING finger protein unkempt homolog, zinc fingers 1-6, GST-SBP tag (UNK, Homo sapiens, UniProt Q9C0B0, residues 30-357)
Chain of UniProt Q9C0B0 (30-357, looked up): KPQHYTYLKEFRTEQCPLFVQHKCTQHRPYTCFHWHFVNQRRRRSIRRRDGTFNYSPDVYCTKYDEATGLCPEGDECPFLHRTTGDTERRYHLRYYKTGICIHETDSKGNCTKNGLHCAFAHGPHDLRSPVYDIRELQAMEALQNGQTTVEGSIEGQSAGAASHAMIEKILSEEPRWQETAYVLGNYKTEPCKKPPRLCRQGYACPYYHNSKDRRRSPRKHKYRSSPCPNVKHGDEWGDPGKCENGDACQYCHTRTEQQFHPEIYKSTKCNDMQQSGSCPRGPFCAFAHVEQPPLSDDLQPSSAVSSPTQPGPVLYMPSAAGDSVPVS
Technique: RNA Bind-n-Seq
Form: RNA
Sample: in vitro
Concentration: not given
Notes: RNA with constant flanks, human and mouse sites, ends assumed
Reference: input RNA pool
Direction: higher = stronger binding
Quantity: bound/input enrichment
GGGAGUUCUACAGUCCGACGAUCGGAGGAAUGUUUGGGGCCGGGAUUUAUUUUGCUGAAAACUCCUCAAAAAGCAACCAAUAUGUUUAUGGAAUUGGAGGAGGAACAGGCUGCCCUACACACAAGGACAGGUCAUGCUAUAUACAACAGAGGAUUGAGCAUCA: 0.666 ratio
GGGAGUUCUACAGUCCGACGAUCCAUGCAGUUGUGGUCAAUAUUGUGGUAAUCGCUAAUUGUACUGAUUGUUUAAGUGUGCAUUAGUUGUGUCUCCCCAGCUAGAUUGUAAGCUCCUGGAGGACAGGGACCACCUCUACAAAACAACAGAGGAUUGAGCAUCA: 0.507 ratio
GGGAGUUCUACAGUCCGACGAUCGUUGUAUAAAUUUUAUUUUCAUAUUAAGUCUCAACUAUUGUAUAUCAGACUAUGUGCCCAUCAAAUCUCUUAGAAUUUGCUAUUGAAAAAAAUUUUGCUAUUGGUUUAGAAUAUUGAGUGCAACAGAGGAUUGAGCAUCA: 20.5 ratio
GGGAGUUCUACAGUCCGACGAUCAAAGUGAAAAAUGAUCAAUUAAGAAAUUUUUGUUCCAUUGAAUUAAAUGUAAACGGAUCUCCAGAGACAGAAGCUGAUGUGGCAACAUUUUGUACUUCUAAGACAGAUGCUAUAUCAAUGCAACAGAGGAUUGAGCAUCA: 0.138 ratio
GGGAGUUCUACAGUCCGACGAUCCAGCAUCUGCAGAUCUUCGAGGAGGGUUUGACUGGAGUCUGCAUUUCAAGUGGGAGCAGAUCCCGCUGGAGCAGAAGAUGACCCGGACUGACCCCACUAAACCCAUCAGGACACCUGUUACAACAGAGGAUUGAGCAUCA: 0.144 ratio
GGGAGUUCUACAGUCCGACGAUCACUCCAGAGCAAAGAGGACCAAGGCUGGACCCCGACACCGAGACACCUCAGUUGAAUAAAACUGUCAGCAUAAAACGACGGGACUCCUAUCUGAGCUGCAAGACAGAGGCCGUGUCUACCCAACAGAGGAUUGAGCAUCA: 0.132 ratio
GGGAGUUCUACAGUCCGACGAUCAUGAAUCUAAAUUGCAUUUAUGCAUUGGAUUUGGCUCACAGACCUACGUAAGGAGCACACUGUAUUAUGAAACAUUGUCACAGUAUAGCUAGACAUUGUACUUCGUCCUUUUCUAGCCCUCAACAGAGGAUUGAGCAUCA: 0.153 ratio
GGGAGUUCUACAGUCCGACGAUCUUCACAAGAAUGUUUGCUGACCCUCAUGGCAAGAGAGUAUUCAGCAUGUUUUUGGAGACUCUAGUGGAUUUCAUACAAGUCCACAAAGAUGAUCUUCAAGAUUGGUUGUUUGUACUGCUGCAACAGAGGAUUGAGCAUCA: 0.127 ratio
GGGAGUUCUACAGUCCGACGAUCCCUACCCCCAUUGCAGGACUGGACAAUAUUAUCUUAUUCUUGAGAGGUUGUAAAGAGCUCGGCCUUAAAGAAUCUCAACUUUUUGACCCGAGUGACCUCCAGGAUACAUCCAACAGAGUACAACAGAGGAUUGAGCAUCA: 0.211 ratio
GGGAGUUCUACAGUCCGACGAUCUAUUUUGCUCCUAUACCAUCGGAAGACCAUGCUGAAAAUAAAGUGGACAUUUUAGAAAUGCUACAGAAAGCCAAAGUAGAUUUAAAACCUCUUCUUUCUAGCCUUUCUGCAAAUAAAGAACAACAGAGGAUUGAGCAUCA: 0.336 ratio
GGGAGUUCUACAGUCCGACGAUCAAAAAGGAAGGAAAAAAAAAGAAAAAAUUUAAAAAAUUUUAAAAAUAUAACGAGGGAUAAAUUUUUGGUGGUGAUAGUGUCCCAGUACAAAAAGGCUGUAAGAUAGUCAACCACAGUAGUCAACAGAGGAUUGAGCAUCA: 7.22 ratio

Series 3
Target: RNA binding protein fox-1 homolog 2, RRM domain, GST-SBP tag (RBFOX2, Homo sapiens, UniProt O43251-10, residues 100-194)
Technique: RNA Bind-n-Seq
Form: RNA
Sample: in vitro
Concentration: 365 nM
Notes: natural RNA segment, single round, ends assumed
Reference: no-protein control
Direction: higher = stronger binding
Quantity: RBNS enrichment (R)
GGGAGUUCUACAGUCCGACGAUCUGCUUACAGAAAAUAUAGCCAUGAUUGAAAUCAAAUAGUAAAGGCUGUUCUGGCUUUUUAUCUUCUUAGCUCAUCUUAAAUAAGCAGUACACUUGGAUGCAGUGCGUCUGUGGAAUUCUCGGGUGCCAA: 0.523
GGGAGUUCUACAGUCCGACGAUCAAGUGUGUCUUACGUGCCACCACGGCGUUGUACCUGUAGGACUCUCAUUCGGGAUGAUUGGAAUAGCUUCUGGAAUUUGUUCAAGUUUUGGGUAUGUUUAAUCUGUUAUGUGGAAUUCUCGGGUGCCAA: 0.777
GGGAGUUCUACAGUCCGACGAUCAAGUAGCGUGGGCUAGCCAAUCUGCCGUUCAUGGUGUAUUGUAAACUCCGAAUUCCAUAUGUAAUAGGAUGCAAGUCUAAGCGUUUCAUGUGGACAUAAAUGUAUCUAAAUGGAAUUCUCGGGUGCCAA: 0.453
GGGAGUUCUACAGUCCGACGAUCCGGUGAUCUGUGGCCUUCUGUGGGUAGCACCAAGCCAGUCAGUCCAGACACAUAGUGAGUUCCUGGAGGGUCUACUGCAGCCUGAGGAAAGGGAACCUCAGCUCGUUAGGUGGAAUUCUCGGGUGCCAA: 1.16
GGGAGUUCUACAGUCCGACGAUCUGCUAAAAACUUUUGGCAACAAAAUUAAACUAAAACCAAAGUCAACAUGUGAAGUGUUUAUCAUAAGAUCCUCAGGAGUCAGUAUUGCAUGAUGCUCCCCUUAAUUGUCAUGGAAUUCUCGGGUGCCAA: 32.2
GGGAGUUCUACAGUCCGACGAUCGCCUUGCCCUCAUGAAGCAUCAUUGAAAUAGCAGGAGCAUGUUGAUUUCUUGGUUAGGUUGCAUUAUAAUAACAAGAGUCAGAACAUUAAUUCGAAACAACUUGCAGUAUUGGAAUUCUCGGGUGCCAA: 3.66
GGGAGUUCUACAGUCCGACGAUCGAGAAAUAGGUACCAGUCCUCAGGACGAGCCAGGAUCCCUCAGGGGAGAGGGCAGACGAUGCCUGGGAUCCAGCUGACAGGAGGGUCCAGCCCGCACUACAGAGGCUGGGUGGAAUUCUCGGGUGCCAA: 0.468
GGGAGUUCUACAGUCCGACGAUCCGGUAAUAAGAGCUGGCAAGUAAGGCUCAGAGAGAAGCAACCAACUGGAGUUAAUUGCCCAUUUGGGCUCUUUGUAUAAUUAUGGCAAAGUAGACAUUUAUGUUCUAAUUUGGAAUUCUCGGGUGCCAA: 0.504
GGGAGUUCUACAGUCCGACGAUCUCUGUUUCAAAUUGGGCUGACCGUAAAAGCAAUUUUGAUGUCUUUCAAACUACCAUAAAGGGAUUUUAACUGUAUUUUUAUUCUUAGAAACAAUACACCUUUAAACAGAUUGGAAUUCUCGGGUGCCAA: 0.545

Series 4
Target: Centromere-binding protein 1, full length, His-tagged (CBF1, Saccharomyces cerevisiae, UniProt P17106, residues 1-351)
Chain of UniProt P17106 (whole entry, looked up): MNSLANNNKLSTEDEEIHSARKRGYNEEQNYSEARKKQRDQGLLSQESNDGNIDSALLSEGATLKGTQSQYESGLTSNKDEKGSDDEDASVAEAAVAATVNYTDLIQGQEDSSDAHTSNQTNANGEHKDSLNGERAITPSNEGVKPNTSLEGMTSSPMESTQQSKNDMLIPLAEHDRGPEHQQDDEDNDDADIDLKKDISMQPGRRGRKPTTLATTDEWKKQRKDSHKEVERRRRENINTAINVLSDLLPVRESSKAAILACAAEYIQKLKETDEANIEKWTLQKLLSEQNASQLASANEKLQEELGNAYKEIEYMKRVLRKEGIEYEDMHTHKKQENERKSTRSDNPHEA
Technique: competition protein-binding microarray
Form: double-stranded DNA, one strand shown
Sample: in vitro
Concentration: 2 µM
Notes: whole 60-bp probe, lowest competitor level
Added: Pho4 competitor, 0.05 µM
Direction: higher = stronger binding
Quantity: fluorescence intensity
CTAACGAAGGTTTGTCACAATACTTACAAGCCAAGTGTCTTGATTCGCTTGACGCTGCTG: 94.7 a.u.
TCCTTGTTGACTTACCACATGTGTGGCCGCCTTTTAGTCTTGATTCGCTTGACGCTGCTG: 94.4 a.u.
CCAAATTATGATTTGCACGTATATGATCGTCTTTATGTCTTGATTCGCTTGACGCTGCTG: 103 a.u.
CATTGCTAGCTCCTCTCCGTGACGGTTATTCAGTGTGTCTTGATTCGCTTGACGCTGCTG: 91 a.u.
TACTTCCGTCGTTTGCACGTTGGCCAGAATGTCTCTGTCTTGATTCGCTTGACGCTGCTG: 89 a.u.
ATAGATAGATGGCCGAACGTGGAATGCCTCTATGGGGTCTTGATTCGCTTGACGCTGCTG: 55.9 a.u.
AATGAAGAAAGTTAAACCGTGATGGATTACTTCTTGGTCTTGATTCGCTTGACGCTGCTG: 104 a.u.
TAATTCCAGGTTGAGCGCGTGGCCGCCTATAATCCAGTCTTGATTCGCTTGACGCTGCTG: 70.7 a.u.
CTAACGAAGGTTTGCGTTGTGGGTGACAAGCCAAGTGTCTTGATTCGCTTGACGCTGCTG: 75.7 a.u.
AGATTGCTTTTCTCACGCCTGTTTTACGTCTCCAGGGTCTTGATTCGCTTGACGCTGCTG: 76.2 a.u.
CGGGGTTAAGTTTGGTGCGTGGGTGGCTTGCAGCAGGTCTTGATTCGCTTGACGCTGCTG: 73.3 a.u.
TGGGAAGAAAAAAAGCACGTGAGCCTGGAAAATCCGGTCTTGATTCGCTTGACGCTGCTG: 2170 a.u.
TTAATGACTCCGGTGGTCGTGATGGTAATCTTGATAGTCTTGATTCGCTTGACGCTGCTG: 82.6 a.u.
TTTACCCCTGGTACCCACGTCCAGTTCGCTTATCTCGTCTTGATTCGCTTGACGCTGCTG: 62.1 a.u.
GGGCCAAGCGAGAGTCACGTGCTTTACAGGCCTGCCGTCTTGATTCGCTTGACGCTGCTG: 8830 a.u.
CGTCCTAGTGATTGTCACGTAACTTCCATGAGGAAGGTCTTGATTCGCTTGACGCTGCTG: 126 a.u.
TTGCTAACGGATTAAAACGTGTGGAATTATTGTTGCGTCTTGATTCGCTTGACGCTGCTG: 155 a.u.
TTCTCATAGAGAATCCACGTGTTGGTCTTTTGGATTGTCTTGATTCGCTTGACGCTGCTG: 869 a.u.
CTAACGAAGGTTTTTCACGTGGCCTACAAGCCAAGTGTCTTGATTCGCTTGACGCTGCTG: 791 a.u.
